Assay results from different studies.
Every numbered part comes from another study and shows a few of its results, in no order.
Sequence of UniProt Q9UHD2 (whole entry, looked up): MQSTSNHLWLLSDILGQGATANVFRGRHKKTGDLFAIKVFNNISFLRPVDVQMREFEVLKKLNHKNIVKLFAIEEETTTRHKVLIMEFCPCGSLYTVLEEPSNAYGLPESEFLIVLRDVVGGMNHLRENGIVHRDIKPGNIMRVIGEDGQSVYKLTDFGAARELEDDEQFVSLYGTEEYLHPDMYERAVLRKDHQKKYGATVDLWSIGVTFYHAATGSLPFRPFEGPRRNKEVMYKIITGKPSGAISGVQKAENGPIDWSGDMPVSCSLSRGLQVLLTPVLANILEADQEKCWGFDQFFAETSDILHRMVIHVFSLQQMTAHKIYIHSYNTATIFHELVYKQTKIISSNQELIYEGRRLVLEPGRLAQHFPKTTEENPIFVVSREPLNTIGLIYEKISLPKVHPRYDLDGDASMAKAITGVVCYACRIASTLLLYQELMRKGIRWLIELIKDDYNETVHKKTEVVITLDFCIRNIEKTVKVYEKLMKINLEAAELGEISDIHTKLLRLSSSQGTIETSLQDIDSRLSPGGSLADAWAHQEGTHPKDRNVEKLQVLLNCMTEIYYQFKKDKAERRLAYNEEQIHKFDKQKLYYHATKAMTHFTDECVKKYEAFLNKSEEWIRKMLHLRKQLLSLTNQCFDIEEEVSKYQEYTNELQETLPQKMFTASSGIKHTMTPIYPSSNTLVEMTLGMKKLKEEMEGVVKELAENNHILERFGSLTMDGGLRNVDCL

Series 1 — cell line: A-375; concentration: 100 µM; time: 36 h
Compound | viability
NNc1nnc(NN)c2ccccc12 | 61.1%
O=C(O)c1ccc(S(=O)(=O)N(Cl)Cl)cc1 | 107%
C[N+](C)(C)CC(O)CC(=O)[O-] (racemic) | 116%
CC(=O)OC(C)C(C)C(=O)OC[C@@]12[C@H]3C[C@]4(C)C(=CC[C@@H]5[C@@]6(C)CC[C@H](O[C@@H]7O[C@H](C(=O)O)[C@@H](O[C@@H]8O[C@H](CO)[C@@H](O)[C@H](O)[C@H]8O)[C@H](O)[C@H]7O[C@@H]7OC[C@@H](O)[C@H](O)[C@H]7O)[C@@](C)(CO)[C@@H]6CC[C@]54C)[C@@H]1CC(C)(C)[C@H](O3)[C@@H]2O (stereo partly shown) | 0.721%
COc1cc2c(cc1OC)[C@@H]1Cc3ccc(OC)c(OC)c3CN1CC2 | 87%

Series 2 — observed: enzyme activity; mode: inhibitor; concentration: 0.5 µM; baseline: control
Target: High affinity nerve growth factor receptor (NTRK1, Homo sapiens, UniProt P04629)
Sequence of UniProt P04629 (whole entry, looked up): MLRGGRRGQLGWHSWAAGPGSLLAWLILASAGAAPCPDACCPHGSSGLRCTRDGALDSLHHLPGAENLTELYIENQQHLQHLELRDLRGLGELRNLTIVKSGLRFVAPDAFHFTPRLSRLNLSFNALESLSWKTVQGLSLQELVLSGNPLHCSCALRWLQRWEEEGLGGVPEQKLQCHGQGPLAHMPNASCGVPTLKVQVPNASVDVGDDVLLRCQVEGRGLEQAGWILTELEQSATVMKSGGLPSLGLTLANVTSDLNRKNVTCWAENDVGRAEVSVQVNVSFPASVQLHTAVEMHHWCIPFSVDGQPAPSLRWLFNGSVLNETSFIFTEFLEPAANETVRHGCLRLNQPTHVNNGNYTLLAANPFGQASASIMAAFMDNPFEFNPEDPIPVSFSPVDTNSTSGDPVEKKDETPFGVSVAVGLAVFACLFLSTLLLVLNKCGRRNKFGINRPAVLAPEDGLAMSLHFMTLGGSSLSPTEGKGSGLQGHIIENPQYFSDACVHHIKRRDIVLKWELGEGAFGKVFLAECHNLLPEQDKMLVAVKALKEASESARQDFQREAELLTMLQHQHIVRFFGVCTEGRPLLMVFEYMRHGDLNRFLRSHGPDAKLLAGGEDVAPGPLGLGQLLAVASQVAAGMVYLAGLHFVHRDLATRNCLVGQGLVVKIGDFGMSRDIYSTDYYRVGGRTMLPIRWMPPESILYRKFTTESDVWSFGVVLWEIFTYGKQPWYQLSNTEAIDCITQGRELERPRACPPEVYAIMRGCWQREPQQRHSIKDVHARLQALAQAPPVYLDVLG
Compound | remaining activity
c1ccc(-c2[nH]ncc2-c2ccnc3ccccc23)nc1 | 102%
O=C1C(Cl)=C(N2C(=O)CCC2=O)C(=O)c2ccccc21 | 97%
Ic1cccc(CSc2nnc(-c3ccncc3)o2)c1 | 96%
CN(C)C[C@H]1CCn2c(c(C3=C(c4cn(C)c5ccccc45)C(=O)NC3=O)c3ccccc32)C1 | 108%
Nc1cccc(-c2cc3c(Oc4cccc(O)c4)ncnc3[nH]2)c1 | 90.5%
c1ccc(-c2cnc(Nc3ccc(OCCN4CCCC4)cc3)s2)cc1 | 54.1%
O=C(Nc1cccc(Nc2nccc(Nc3cccc(C(F)(F)F)c3)n2)c1)C1CC1 | 98.1%
Cn1nc2c3c(cccc31)C(=O)c1ccccc1-2 | 95%
CCN(CC)CCNC(=O)c1c(C)[nH]c(/C=C2\C(=O)Nc3ccc(F)cc32)c1C | 11.5%

Series 3 — observed: ligand displacement; concentration: 10 µM
Target: D(1A) dopamine receptor (DRD1, Homo sapiens, UniProt P21728)
Sequence of UniProt P21728 (whole entry, looked up): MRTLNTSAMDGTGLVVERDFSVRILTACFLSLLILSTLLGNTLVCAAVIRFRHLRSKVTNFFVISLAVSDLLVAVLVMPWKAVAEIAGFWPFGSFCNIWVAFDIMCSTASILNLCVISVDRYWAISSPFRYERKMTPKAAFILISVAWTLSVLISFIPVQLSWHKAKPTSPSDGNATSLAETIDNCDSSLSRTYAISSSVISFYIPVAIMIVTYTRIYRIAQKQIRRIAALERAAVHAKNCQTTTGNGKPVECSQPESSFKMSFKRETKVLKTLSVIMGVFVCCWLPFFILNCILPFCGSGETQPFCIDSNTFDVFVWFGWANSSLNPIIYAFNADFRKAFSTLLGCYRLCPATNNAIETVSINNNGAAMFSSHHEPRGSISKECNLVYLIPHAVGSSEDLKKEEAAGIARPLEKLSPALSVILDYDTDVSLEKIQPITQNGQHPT
Compound | inhibition [%]
Cc1c(NC(=O)c2cc(C(N)=O)nc3cc(F)ccc23)c(C(F)(F)F)nn1Cc1ccc(C#N)cc1 | -17.9
Cn1nc(C(=O)NCc2ccc(C(=O)O)cc2)cc1-c1ccc2[nH]ccc2c1 | -19.6
Nc1nc(NCc2ccccc2)nc(-c2cccc(CO)c2)n1 | 3.99
c1ccc(N2CCN(Cc3nc4ccccc4[nH]3)CC2)nc1 | 3
N#CC1(c2ccccn2)CCN(Cc2cc(C(=O)N3CCCC3)c(=O)n3ccccc23)CC1 | -15.1
Cc1ccc(-c2cnc([C@@]3(O)CC[C@H](C(=O)O)C(C)(C)C3)s2)cc1Nc1cccc(C(F)(F)F)n1 | 6.27
Cn1cc(Cl)c2c(Oc3c(F)cc(Nc4cc(Cl)nc(N)n4)cc3F)ccnc21 | 13.2
O=S(=O)(NC1CCC(c2cc(F)ccc2F)(S(=O)(=O)c2ccc(Cl)cc2)CC1)C(F)(F)F (stereo not shown) | 17.4
O=C1NC(c2ccccn2)Sc2ccccc21 (stereo not shown) | 7.77
COc1cc(-c2cn(C3CCc4c(F)cccc4N(CC(F)(F)F)C3=O)nn2)ccc1-n1cnc(C)c1 (stereo not shown) | 5.87
O=C(NS(=O)(=O)c1ccc(NCC2CCOCC2)c([N+](=O)[O-])c1)c1ccc(N2CCN(Cc3ccc(C(F)(F)F)cc3-c3ccc(Cl)cc3)CC2)cc1Oc1cnc2[nH]ccc2c1 | 34.2
CN1CCN(c2cnc3c(C4CCN(C(=O)c5ccc(OC(F)(F)F)cc5N)CC4)ncnc3c2)CC1 | -16.5
C[C@H](c1ccnc(Nc2nc3ccc(-c4cc(N(C)C)ncn4)cc3[nH]2)c1)N1CCN(C(=O)CC(F)(F)F)CC1 | 1.63

Further values, each from its own experiment
SMILES | target | assay | setting | quantity | result
COc1ccc2[nH]c3c4[nH]c5ccc(OC)cc5c4c4c(c3c2c1)C(=O)NC4=O | Serine/threonine-protein kinase TBK1 (TBK1, Homo sapiens, UniProt Q9UHD2) | enzyme activity | 1 µM | remaining activity | 59%
